# Literature values, collected from citations in different studies.
# Each line is one published result; not all experiments were run side by side.
Substance,target or system,test,system,conditions,scale,measurement,value
FLIRRFFMF,"HLA class I histocompatibility antigen, B alpha chain, allele B*08:02 (Homo sapiens, UniProt P01889)",peptide-MHC binding,peptide,,,IC50,31 nM
CCCCCc1cc(O)c2c(c1)OC(C)(C)[C@@H]1CCC(C)=C[C@@H]21,CYP2E1 human,,human liver microsomes,10 µM,,inhibition,inhibited
O=c1ccn([C@@H]2O[C@H](CO)[C@@H](O)[C@H]2O)c(=O)[nH]1,"Uridine nucleoside ribohydrolase (Trichomonas vaginalis, UniProt A2FTT0)","hydrolysis in cells, substrate, 13C-edited 1H NMR",,,,Km,39 µM
CC1(C)NC(=O)N(c2ccc(F)c(C(F)(F)F)c2)C1=O,Schistosoma mansoni,,"juvenile, mouse",,,ED50,140 mg/kg
CC(C)(C)[C@H](NC(=O)C(F)(F)F)C(=O)N1C[C@H]2[C@@H]([C@H]1C(=O)N[C@H](C#N)C[C@@H]1CCNC1=O)C2(C)C,,,"human, plasma",,,fraction unbound,0.31
O=C(O)CC(=O)C(=O)O,citrate synthase H262Q mutant,"binding, fluorescence titration",,20 °C,,Kd,42 µM
Nc1nc2c(ncn2[C@@H]2O[C@H](CO)[C@@H](O)[C@H]2O)c(=O)[nH]1,"Adenosine/guanosine nucleoside ribohydrolase (Trichomonas vaginalis, UniProt A2EYV3)","hydrolysis in cells, substrate, 13C-edited 1H NMR",,hydrolysis blocked by forodesine,,Km,121 µM
Brc1c(Br)c(Br)c2n[nH]nc2c1Br,CK2 I174A mutant,,,concentration not given,baseline: wild-type CK2 over I174A,potency reduction,2.8 fold
C=C(C)[C@@H]1CCC(C)=C[C@H]1c1c(O)cc(CCCCC)cc1O,CYP2E1 human,,human liver microsomes,10 µM,,inhibition,inhibited

# Some of these lines once more:
Substance,target or system,test,system,conditions,scale,measurement,value
CC(C)(C)[C@H](NC(=O)C(F)(F)F)C(=O)N1C[C@H]2[C@@H]([C@H]1C(=O)N[C@H](C#N)C[C@@H]1CCNC1=O)C2(C)C,,,"human, plasma",,,fraction unbound,0.31
